Measured values from different studies.
± gives the spread as reported. Values after ≈ are worked out from the molar mass of the structure shown.

By UniProt entry, the sequences of proteins in these tests, tags left out. Residues count along the entry.
UniProt P04757, whole entry, looked up: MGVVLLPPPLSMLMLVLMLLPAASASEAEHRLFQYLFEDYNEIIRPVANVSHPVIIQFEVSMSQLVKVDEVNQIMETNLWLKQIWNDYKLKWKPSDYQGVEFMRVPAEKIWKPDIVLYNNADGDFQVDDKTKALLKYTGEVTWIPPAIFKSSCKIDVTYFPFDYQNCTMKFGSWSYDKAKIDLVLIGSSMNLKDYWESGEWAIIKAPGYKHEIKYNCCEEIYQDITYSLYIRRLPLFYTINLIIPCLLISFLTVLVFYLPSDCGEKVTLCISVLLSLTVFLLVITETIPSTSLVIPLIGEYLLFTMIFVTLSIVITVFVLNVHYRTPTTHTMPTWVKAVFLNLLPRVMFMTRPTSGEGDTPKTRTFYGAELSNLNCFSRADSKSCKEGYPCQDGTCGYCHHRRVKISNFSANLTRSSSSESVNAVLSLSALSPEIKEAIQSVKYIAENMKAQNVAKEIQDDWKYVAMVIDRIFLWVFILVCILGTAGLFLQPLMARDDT
UniProt P12392, whole entry, looked up: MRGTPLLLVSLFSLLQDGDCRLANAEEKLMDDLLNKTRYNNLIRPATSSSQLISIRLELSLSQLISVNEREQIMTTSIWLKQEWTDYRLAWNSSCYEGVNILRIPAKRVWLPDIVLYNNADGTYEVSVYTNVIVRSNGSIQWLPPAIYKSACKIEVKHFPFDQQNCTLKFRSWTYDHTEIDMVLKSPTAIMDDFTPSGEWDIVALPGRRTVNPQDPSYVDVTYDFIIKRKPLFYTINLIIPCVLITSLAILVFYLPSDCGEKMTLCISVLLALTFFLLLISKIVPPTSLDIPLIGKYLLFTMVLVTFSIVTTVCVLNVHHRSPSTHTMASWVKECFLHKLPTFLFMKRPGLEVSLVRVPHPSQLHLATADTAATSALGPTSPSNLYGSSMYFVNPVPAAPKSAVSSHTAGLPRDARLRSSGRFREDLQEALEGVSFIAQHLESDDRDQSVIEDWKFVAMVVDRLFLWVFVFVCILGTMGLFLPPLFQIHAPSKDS
UniProt P43143, whole entry M241L/F253L/V303I/V320I/I327V/A333T/K339T, looked up: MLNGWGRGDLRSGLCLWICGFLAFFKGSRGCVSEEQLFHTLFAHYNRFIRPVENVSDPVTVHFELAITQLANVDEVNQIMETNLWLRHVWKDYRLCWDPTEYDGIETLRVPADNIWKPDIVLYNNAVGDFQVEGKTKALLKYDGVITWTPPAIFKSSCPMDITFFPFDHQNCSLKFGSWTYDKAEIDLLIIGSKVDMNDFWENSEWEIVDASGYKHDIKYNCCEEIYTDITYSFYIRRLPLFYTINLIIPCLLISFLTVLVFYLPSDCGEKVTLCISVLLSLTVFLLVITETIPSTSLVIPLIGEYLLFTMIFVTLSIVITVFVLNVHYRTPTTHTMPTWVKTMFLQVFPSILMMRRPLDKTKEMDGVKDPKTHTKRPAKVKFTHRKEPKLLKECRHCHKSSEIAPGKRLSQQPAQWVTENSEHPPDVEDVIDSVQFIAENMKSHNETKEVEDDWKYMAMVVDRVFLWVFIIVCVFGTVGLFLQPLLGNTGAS
UniProt P10959, 19-549 limits assumed: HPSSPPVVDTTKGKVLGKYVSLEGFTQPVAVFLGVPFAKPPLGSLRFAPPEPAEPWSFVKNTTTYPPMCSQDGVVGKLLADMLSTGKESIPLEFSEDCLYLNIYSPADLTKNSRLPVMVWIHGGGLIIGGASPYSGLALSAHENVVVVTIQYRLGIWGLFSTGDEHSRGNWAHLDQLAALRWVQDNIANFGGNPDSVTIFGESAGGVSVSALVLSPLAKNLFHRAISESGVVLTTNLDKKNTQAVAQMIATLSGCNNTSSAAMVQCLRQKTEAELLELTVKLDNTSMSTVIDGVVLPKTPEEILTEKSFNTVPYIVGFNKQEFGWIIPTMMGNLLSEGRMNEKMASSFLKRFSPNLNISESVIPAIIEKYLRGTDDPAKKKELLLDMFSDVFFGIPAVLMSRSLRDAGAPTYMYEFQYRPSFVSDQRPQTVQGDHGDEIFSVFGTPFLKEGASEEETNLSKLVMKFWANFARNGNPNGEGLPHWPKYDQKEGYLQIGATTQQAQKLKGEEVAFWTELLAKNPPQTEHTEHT

SMILES	target or system	assay	test system	conditions	how to read	endpoint	result
Cc1nc2c(C(=O)N(C)Cc3ccccc3)c[nH]n2c(=O)c1Cc1ccc(Cl)cc1	dengue virus 2	viral replication, single-cycle viral yield	New Guinea C	10 µM	–	inhibition	85%
Cc1ccc2[nH]cc(CNCC3(N4CCCC4)COC3)c2c1	GBM6	–	–	30 µM, 48 h	reference: DMSO	viability	101%
O=C(CSc1nccn1C1CCCCC1)Nc1cc(C(F)(F)F)ccc1Cl	Plasmodium falciparum	parasite growth, SYBR Green	3D7 wild type	72 h	–	EC50	217 ± 84 nM
Cc1nn(-c2ccc(Cl)cc2)c2c1C(c1cccc(Cl)c1Cl)C(C#N)=C(N)O2 (stereo not shown)	Vero E6	MTT	–	100 µM	–	viability	47.7%
CC(=O)N[C@@H](CO)C(=O)N[C@@H](C)C(=O)N[C@@H](CO)C(=O)N[C@@H](C)C(=O)N[C@@H](CO)C(=O)N[C@@H](Cc1ccc(OP(=O)(O)O)cc1)C(=O)N[C@@H](CO)C(=O)N[C@@H](C)C(=O)N[C@@H](CO)C(=O)N[C@@H](C)C(N)=O	SHP-1 catalytic domain (ΔSH2)	phosphatase activity, substrate	–	pH 7.4	–	kcat	26 ± 4 s⁻¹
CCOC(=O)c1c(-c2ccc(Cl)cc2Cl)n(-c2nc(-c3ccc(Cl)cc3)c3c(NC(=O)c4ccccc4)nnc-3[nH]2)[nH]c1=O	K562	SRB	–	–	–	GI50	2760 nM
CCCC[C@H](NC(=O)[C@H](Cc1c[nH]c2ccccc12)NC(=O)CNC(=O)[C@@H](CCCC)NC(=O)[C@@H](N)Cc1ccc(O)cc1)C(=O)N[C@@H](CC(=O)O)C(=O)N[C@@H](Cc1ccccc1)C(N)=O	–	CCK antagonist	male Sprague Dawley rat	RVM microinjection, 60 ng, naloxone 10 mg/kg sc, together with: CCK-8 sulfate 30 ng	–	paw withdrawal latency	20.1 s
CC1(C)N=C(N)N=C(N)N1c1cccc(OCCCc2ccccc2)c1	Mycobacterium tuberculosis	microplate alamar blue	H37Rv	GAST medium, glycerol carbon source	–	MIC90	3.1 µM (≈ 1.09 µg/mL)
CC[C@H](C)[C@@H]1NC(=O)[C@H](CCC(=O)O)NC(=O)[C@@H]2CCCN2C(=O)[C@H](Cc2c[nH]cn2)NC(=O)[C@H](CCCNC(=N)N)NC(=O)[C@H](C(C)C)NC(=O)[C@H](CC(N)=O)NC(=O)[C@@H]2CSSC[C@H](NC(=O)CN)C(=O)N[C@@H](CSSC[C@@H](C(N)=O)NC1=O)C(=O)N[C@@H](CO)C(=O)N[C@@H](Cc1c[nH]cn1)C(=O)N1CCC[C@H]1C(=O)N[C@@H](C(C)C)C(=O)N2	Nicotinic acetylcholine receptor alpha6/alpha3/beta4 (Rattus norvegicus, UniProt P04757+P12392+P43143)	ion current, antagonist, two-electrode voltage clamp	Xenopus oocytes	rat, together with: ACh 300 µM	–	IC50	0.49 nM
COc1ccc(S(=O)(=O)N(CC(C)C)C[C@@H](O)[C@H](Cc2ccccc2)NC(=O)O[C@@H]2C[C@@H]3CO[C@@H]4O[C@H]2C[C@H]34)cc1	HIV-1	viral replication	MT-2, LAI	–	–	IC50	38 nM
COC(=O)c1cc(Cl)ccc1NC(=O)CSc1ncc(S(=O)(=O)c2ccc(Br)cc2)c(=O)[nH]1	dengue virus 2	viral replication, single-cycle viral yield	New Guinea C	5 µM	–	inhibition	> 90%
O=C(Nc1cccc(C2=NCCN2)c1)c1ccc(-c2ccc(C(=O)Nc3cccc(C4=NCCN4)c3)cc2)cc1	Trypanosoma brucei	EdU labelling	–	concentration not given	–	nuclear DNA replication	no effect
N#Cc1c(-c2ccc(Cl)cc2Cl)n(-c2nc(-c3ccc(Cl)cc3)c3c(NC(=O)c4ccccc4)nnc-3[nH]2)[nH]c1=O	HL-60(TB)	–	–	10 µM	–	cell growth	7.37%
CC(C)CC(NC(=O)C(Cc1ccccc1)NC(=O)c1cnc(C(=O)NC(Cc2ccccc2)C(=O)NC(CC(C)C)B(O)O)cn1)B(O)O (stereo not shown)	proteasome (human)	chymotrypsin-like activity, inhibitor, Proteasome-Glo	RPMI-8226	24 h	–	IC50	4.2 ± 0.38 nM
COP(=O)(OC)Oc1ccc([N+](=O)[O-])cc1Cl	Carboxylesterase 1C (Ces1c, Rattus norvegicus, UniProt P10959)	enzyme activity, inhibitor	rat, postnatal day 70, rat serum	together with: p-nitrophenyl valerate	–	IC50	81 nM
Cc1nn(-c2ccc(Cl)cc2)c2c1C(c1ccc(O)cc1)C(C#N)=C(N)O2 (stereo not shown)	Vero E6	MTT	–	100 µM	–	viability	45.8%
Cc1cc(Nc2ccc(S(F)(F)(F)(F)F)cc2)n2nc(C(C)(F)F)nc2n1	Plasmodium falciparum DHODH C276F	enzyme activity, inhibitor	–	–	reference: mutant over wild type	IC50 fold increase	10 to 20 fold
CC(=O)N[C@@H](C)C(=O)N[C@@H](Cc1c[nH]c2ccccc12)C(=O)N[C@@H](CO)C(=O)N[C@@H](Cc1ccc(OP(=O)(O)O)cc1)C(=O)N[C@@H](C)C(=O)N[C@@H](CC(=O)O)C(=O)N[C@@H](Cc1ccc(OP(=O)(O)O)cc1)C(=O)N[C@@H](C)C(=O)N[C@@H](C)C(N)=O	SHP-1 catalytic domain (ΔSH2)	phosphatase activity, substrate	–	pH 7.4	–	kcat	13 ± 1 s⁻¹
CC/C=C\C/C=C\CCC/C=C/C=C/C=C\CCCC(=O)O	NALM-6 (p53 wild type)	cell growth, MTT	–	24 h	–	LD50	37.5 µM
CC(C)C1CCC(N2CCC3(CC2)C(=O)N(CCNS(N)(=O)=O)Cc2ccccc23)CC1 (stereo not shown)	–	antinociception, warm water tail withdrawal	rhesus monkey	subcutaneous	–	minimum full effective dose	0.03 mg/kg
CC(=O)N[C@@H](C)C(=O)N[C@H](C(=O)N[C@@H](Cc1c[nH]c2ccccc12)C(=O)N[C@@H](CCC(=O)O)C(=O)N[C@@H](Cc1ccccc1)C(=O)N[C@@H](Cc1ccc(OP(=O)(O)O)cc1)C(=O)N[C@@H](Cc1ccc(OP(=O)(O)O)cc1)C(=O)N[C@@H](C)C(=O)N[C@@H](C)C(N)=O)C(C)C	SHP-1 catalytic domain (ΔSH2)	phosphatase activity, substrate	–	pH 7.4	–	kcat	24 ± 2 s⁻¹
CSCC[C@H](NC(=O)[C@H](CC(C)C)NC(=O)[C@H](CCCCN)NC(=O)[C@H](CCC(N)=O)NC(=O)[C@H](CCCNC(=N)N)NC(=O)[C@H](CCCCN)NC(=O)[C@H](CCCNC(=N)N)NC(=O)[C@H](CCC(N)=O)NC(=O)[C@@H](N)C(C)C)C(=O)N1CCC[C@H]1C(=O)O	human importin alpha4	pull-down with immobilized compound	Jurkat cell lysate	concentration not given, together with: 300 µM unlabelled peptide	–	competition of binding	~20%
